Published values collected from several papers.
Parts stem from different laboratories: compare values within a part only.

Set 1
Cell line: HEK-293T
Observed: pseudovirus infection
Technique: FDA-approved drug library screen
Organism: VSV pseudotyped with SARS-CoV-2 spike
Concentration: 10 µM
Time: 16 h
Relative to: vehicle-treated
Measurement: GFP-positive cells
SMILES = C[C@]12CC[C@H]3[C@@H](CCC4=CC(=O)CC[C@@]43C)[C@@H]1CC[C@@H]2O; result = 107%
SMILES = OC(CCCN1CCCCC1)(c1ccccc1)c1ccccc1; result = 71.8%
SMILES = C=CC[C@@H]1/C=C(\C)C[C@H](C)C[C@H](OC)[C@H]2O[C@@](O)(C(=O)C(=O)N3CCCC[C@H]3C(=O)O[C@H](/C(C)=C/[C@@H]3CC[C@@H](O)[C@H](OC)C3)[C@H](C)[C@@H](O)CC1=O)[C@H](C)C[C@@H]2OC; result = 83.7%
SMILES = C=CC1=C(C(=O)O)N2C(=O)[C@@H](NC(=O)/C(=N\O)c3csc(N)n3)[C@H]2SC1; result = 94.4%

Set 2
Target: Replicase polyprotein 1ab, main protease (rep, Severe acute respiratory syndrome coronavirus 2, UniProt P0DTD1)
Observed: enzyme activity
Mode: inhibitor
Concentration: 20 µM
Notes: hit confirmation, no DTT
Measurement: inhibition
SMILES = C[C@@H]1O[C@@H](Oc2c(-c3cc(O)c(O)c(O)c3)oc3cc(O)cc(O)c3c2=O)[C@@H](O)[C@H](O)[C@H]1O; result = 77.9%
SMILES = CC1=C(CC(=O)O)c2cc(F)ccc2/C1=C\c1ccc([S+](C)[O-])cc1 (stereo not shown); result = 57.3%
SMILES = O=C1c2c(O)cc(O)cc2O[C@H](c2cc(O)c(O)c(O)c2)[C@H]1O; result = 99.7%

Set 3
Target: Interferon regulatory factor 5, full length, phosphomimetic (IRF5, Homo sapiens, UniProt Q13568-2, residues 1-514, S451D/S453D/S456D/S462D)
Technique: protein-binding microarray
Form: double-stranded DNA, one strand shown
Sample: in vitro
Concentration: 940 nM top
Notes: 60-bp whole probe
With: salmon DNA 0.4 mg/ml
Relative to: random background probes
Direction: higher = stronger binding
Measurement: fitted relative affinity
Shared flanks, not repeated: GCCTAGCAC … GTCTTGATTCGCTTGACGCTGCTG
Oligonucleotide = GATGGTCTCCTTATCCTGACGTGCTAG; result = 0.489 z-score
Oligonucleotide = GACGATTTCACTCTCGAGACGTGCTAG; result = 2.22 z-score
Oligonucleotide = GACGGAATCGGTCTCGGGACGTGCTAG; result = 1.23 z-score
Oligonucleotide = TTAGAACTGAGACTGGCTTAGTGCTAG; result = -0.531 z-score
Oligonucleotide = CATTTATTTACTCTCTACATGTGCTAG; result = 2.1 z-score
Oligonucleotide = TCATGCTTCAGGTTTACCACTGTGCTA; result = 0.0392 z-score
Oligonucleotide = TTAGGTTTCGAATTTCGGTTAGTGCTA; result = 7.01 z-score
Oligonucleotide = TTAGATTTCAGTCTCGATGAGTGCTAG; result = 2.92 z-score

Set 4
Target: Hepatocyte nuclear factor 3-beta, forkhead domain (FOXA2, Homo sapiens, UniProt Q9Y261, residues 142-269)
Technique: protein-binding microarray
Form: double-stranded DNA, one strand shown
Sample: in vitro
Concentration: not given
Notes: k-mer, scored over probes, only values ≥0.25
Direction: higher = stronger binding
Measurement: E-score
Target sequence (chain): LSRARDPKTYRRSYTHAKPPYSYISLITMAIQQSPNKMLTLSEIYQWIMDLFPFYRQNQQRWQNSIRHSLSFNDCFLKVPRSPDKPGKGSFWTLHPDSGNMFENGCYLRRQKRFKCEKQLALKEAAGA
Oligonucleotide = AACACATC; result = 0.255
Oligonucleotide = GTATTTTA; result = 0.294
Oligonucleotide = AATGTAAA; result = 0.342
Oligonucleotide = AGCAAATA; result = 0.281
Oligonucleotide = TACAGAAA; result = 0.265
Oligonucleotide = TGATTACA; result = 0.344
Oligonucleotide = ATATCAAG; result = 0.309
Oligonucleotide = ACAACTAA; result = 0.317

Set 5
Target: Replicase polyprotein 1ab, nsp13 helicase (rep, Severe acute respiratory syndrome coronavirus 2, UniProt P0DTD1)
Mode: inhibitor
Concentration: 20 µM
Measurement: inhibition
Compound = Cc1nc(-c2ccc(OCC(C)C)c(C#N)c2)sc1C(=O)O; result = 0.49%
Compound = C=Cc1cc(O)cc2nc(-c3ccc(O)c(F)c3)oc12; result = 6.73%
Compound = CCNCc1cc(C(C)(C)C)c(O)c(C(C)(C)C)c1; result = 3.39%
Compound = CC1(C)S[C@@H]2[C@H](NC(=O)[C@H](NC(=O)N3CCN(S(C)(=O)=O)C3=O)c3ccccc3)C(=O)N2[C@H]1C(=O)O; result = 6.52%
Compound = CC(C)(Oc1ccc(Cl)cc1)C(=O)OCCOC(=O)c1cccnc1; result = 1.86%
Compound = Cc1ccc(S(=O)(=O)NCl)cc1; result = 100%
Compound = NC1=N[C@@](c2cccc(-c3cncnc3)c2)(c2ccnc(C(F)F)c2)c2cccc(F)c21; result = -5.14%
Compound = CSCC[C@H](NC(=O)[C@H](CC(C)C)NC(=O)CNC(=O)[C@H](Cc1ccccc1)NC(=O)[C@H](Cc1ccccc1)NC(=O)[C@H](CCC(N)=O)NC(=O)[C@H](CCC(N)=O)NC(=O)[C@@H]1CCCN1C(=O)[C@H](CCCCN)NC(=O)[C@@H]1CCCN1C(=O)[C@@H](N)CCCN=C(N)N)C(N)=O; result = 7.28%
Compound = CC(=O)N[C@@H](Cc1ccc(O)cc1)C(=O)O; result = -3.47%
Compound = Oc1ccc(-c2nc(-c3ccc(F)cc3)c(-c3ccncc3)[nH]2)cc1; result = -5.72%
Compound = Cc1c(C)c2c(c(C)c1O)CCC(C)(C(=O)O)O2 (stereo not shown); result = 2.01%
Compound = COc1ccc(S(=O)(=O)N2CCC[C@H]2C(=O)Nc2cc(C)cc(C)c2)cc1; result = 0.94%
Compound = Nc1ccn(C[C@@H](CO)OCP(=O)(O)O)c(=O)n1; result = 6.71%
Compound = Oc1c(Cl)cc(Cl)c(Cl)c1Cc1c(O)c(Cl)cc(Cl)c1Cl; result = 19.4%
Compound = O=C(O)C[C@H](O)C[C@H](O)/C=C/c1c(C2CC2)nc2ccccc2c1-c1ccc(F)cc1; result = 1.06%
Compound = COc1ccc(Cc2nn3c([C@@H](CCCc4ccccc4)[C@@H](C)O)nc(C)c3c(=O)[nH]2)cc1OC; result = 5.87%
Compound = CN[C@@H]1CCc2[nH]c3ccc(C(N)=O)cc3c2C1; result = -1.33%
Compound = CN1[C@@H]2CC[C@H]1C[C@@H](OC1c3ccccc3CCc3ccccc31)C2; result = 7.42%
Compound = CC(C)[C@H](NS(=O)(=O)c1ccc(-c2ccc(Br)cc2)cc1)C(=O)O; result = 0.24%
Compound = OC(CCCN1CCN(c2ncc(F)cn2)CC1)c1ccc(F)cc1 (stereo not shown); result = 5.4%
Compound = CCOC(=O)c1ccc(N2NC(=O)/C(=C/c3ccc([N+](=O)[O-])o3)C2=O)cc1; result = 92.8%
Compound = [N-]=[N+]=N[C@]1(CO)O[C@@H](n2ccc(N)nc2=O)[C@H](O)[C@@H]1O; result = 8.07%
Compound = CCNC(=O)[C@@H]1CCCN1C(=O)[C@H](CCCNC(=N)N)NC(=O)[C@H](CC(C)C)NC(=O)[C@@H](CC(C)C)NC(=O)[C@H](Cc1ccc(O)cc1)NC(=O)[C@H](CO)NC(=O)[C@H](Cc1c[nH]c2ccccc12)NC(=O)[C@H](Cc1c[nH]cn1)NC(=O)[C@@H]1CCC(=O)N1; result = 2.18%
Compound = CCCCCNC(=N)N/N=C/c1c[nH]c2ccc(OC)cc12; result = 6.08%

Set 6
Target: PABPC1L2, full length, GST fusion (mouse, UniProt A0ABA7IW68)
Technique: RNAcompete
Form: RNA
Sample: in vitro
Concentration: 20 nM
Notes: 7-mer, probes averaged, single round
Relative to: mean of 7-mers
Direction: higher = stronger binding
Measurement: 7-mer Z-score
Residues (chain): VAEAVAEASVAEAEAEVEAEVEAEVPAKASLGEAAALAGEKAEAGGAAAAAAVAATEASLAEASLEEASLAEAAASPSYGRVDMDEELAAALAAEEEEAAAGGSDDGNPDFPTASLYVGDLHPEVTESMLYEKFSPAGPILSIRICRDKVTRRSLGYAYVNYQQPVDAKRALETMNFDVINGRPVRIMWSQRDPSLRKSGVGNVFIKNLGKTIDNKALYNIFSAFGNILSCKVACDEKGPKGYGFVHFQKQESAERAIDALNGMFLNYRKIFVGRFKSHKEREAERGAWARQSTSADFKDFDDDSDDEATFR
Oligonucleotide = AGUCAAA; result = 0.445
Oligonucleotide = UCGCGCG; result = -0.338
Oligonucleotide = UAGAUAU; result = -0.139
Oligonucleotide = GCGUAUA; result = -0.204
Oligonucleotide = AGCUAAA; result = 0.871

Some of these lines once more (set 6):
Oligonucleotide = AGUCAAA; result = 0.445
Oligonucleotide = UCGCGCG; result = -0.338
Oligonucleotide = UAGAUAU; result = -0.139
Oligonucleotide = GCGUAUA; result = -0.204
Oligonucleotide = AGCUAAA; result = 0.871
